# Results pooled from the literature.
# Each line is one published result; not all experiments were run side by side. Several values in a cell are separate wells, animals, samples, runs or records.
# Organism: Staphylococcus aureus
Structure (SMILES),assay,test system,setting,scale,endpoint,result
CO/N=C(\C(=O)N[C@@H]1C(=O)N2C(C(=O)O)=C(CSC(=O)c3ccco3)CS[C@H]12)c1csc(N)n1,,"CAAS-2019-CAAS-2019-09 clinical blaZ-resistant isolate, PBS",,,MBC,16 µg/mL
CC(C)C[C@H](NC(=O)CNC(=O)CNC(=O)CNC(=O)[C@H](Cc1ccc(O)cc1)NC(=O)[C@H](CC(C)C)NC(=O)[C@@H](NC(=O)CNC(=O)[C@H](Cc1ccc(O)cc1)NC(=O)[C@H](CCCCN)NC(=O)[C@H](CC(N)=O)NC(=O)[C@@H](NC(=O)[C@H](CCCCN)NC(=O)[C@H](Cc1c[nH]c2ccccc12)NC(=O)CN)[C@@H](C)O)[C@@H](C)O)C(=O)N[C@@H](CCCCN)C(=O)N[C@@H](CCCCN)C(=O)N[C@@H](CC(C)C)C(=O)N[C@@H](CC(C)C)C(=O)N[C@@H](CC(C)C)C(=O)N[C@@H](CC(C)C)C(=O)N[C@@H](CC(C)C)C(=O)N[C@@H](CCCCN)C(=O)N[C@@H](CCCCN)C(=O)N[C@@H](CC(C)C)C(=O)NCC(=O)O,,USA300,together with: 1 mM MgCl2,,MIC,32 µg/mL
Cc1c2c(nn1C)CSCc1cc(n(C)n1)CSc1cc(c3ccccc3c1)OCCCc1c(C(=O)O)n(C)c3c-2c(Cl)ccc13,"label-free quantitative proteomics, measured: SAOUHSC_00864 protein",SA113,concentration not given,reference: untreated control,fold change,0.0254
CC[C@H](C)[C@H](NC(=O)[C@H](C)NC(=O)[C@H](CCCCN)NC(=O)[C@H](CC(C)C)NC(=O)[C@H](C)NC(=O)[C@@H](NC(=O)[C@H](Cc1c[nH]cn1)NC(=O)[C@H](CC(C)C)NC(=O)[C@@H](NC(=O)[C@@H](NC(=O)[C@H](CCCCN)NC(=O)[C@H](C)NC(=O)[C@H](C)NC(=O)[C@H](CO)NC(=O)[C@H](CCCCN)NC(=O)[C@H](Cc1ccccc1)NC(=O)[C@@H](NC(=O)[C@H](CCCCN)NC(=O)[C@H](CC(C)C)NC(=O)[C@H](Cc1ccccc1)NC(=O)[C@H](CO)NC(=O)[C@H](CCCCN)NC(=O)[C@H](Cc1c[nH]c2ccccc12)NC(=O)[C@H](CCCCN)NC(C)=O)[C@@H](C)O)[C@@H](C)O)C(C)C)[C@@H](C)O)C(=O)N[C@@H](CO)C(=O)N[C@@H](CO)C(N)=O,,MRSA,130 strains,,MIC90,8 µg/mL
C=CC[C@@H]1c2ccc(OC)c(OC)c2CN2CCc3cc4c(cc3[C@H]12)OCO4,,"P2rx7 A312V/A312V mice, skin wound infection","dose not given, day 6",reference: day 0,relative wound size,0.77 and 0.73 and 0.98 and 0.75 and 0.82 and 1.04
CN[C@H](CC(C)C)C(=O)N[C@H]1C(=O)N[C@@H](CC(N)=O)C(=O)N[C@H]2C(=O)N[C@H]3C(=O)N[C@H](C(=O)N[C@H](C(=O)O)c4cc(O)cc(O)c4-c4cc3ccc4O)[C@H](O)c3ccc(c(Cl)c3)Oc3cc2cc(c3O[C@@H]2O[C@H](CO)[C@@H](O)[C@H](O)[C@H]2O[C@H]2C[C@](C)(N)[C@H](O)[C@H](C)O2)Oc2ccc(cc2Cl)[C@H]1O,,"CAAS-2019-19 clinical blaZ-resistant isolate, 25% plasma",,,MBC,8 µg/mL
CC[C@H](C)[C@H](NC(=O)[C@H](CCCCN)NC(=O)[C@H](CCCCN)NC(=O)[C@H](Cc1ccccc1)NC(=O)[C@@H](NC(=O)[C@@H](NC(=O)[C@H](CCCNC(=N)N)NC(=O)[C@H](Cc1ccccc1)NC(=O)[C@@H](NC(=O)[C@H](CCCCN)NC(=O)[C@H](CCCCN)NC(=O)[C@@H](N)CCSC)[C@@H](C)CC)C(C)C)[C@@H](C)CC)C(=O)N[C@@H](CC(C)C)C(=O)N[C@@H](CCCCN)C(=O)N[C@@H](CCCNC(=N)N)C(=O)N[C@@H](CC(C)C)C(=O)N[C@H](C(=O)N[C@H](C(=O)O)C(C)C)[C@@H](C)CC,broth microdilution,ATCC 25923,"compound pretreated with trypsin 1 h, together with: trypsin 1 mg/mL",,MIC,> 32 µg/mL
OB(O)c1csc2ccccc12,,USA300 wild type,50 µM,reference: untreated,growth relative to untreated,63.8% and 46.2% and 53.2% and 80.9% and 71.1%

# A few entries again:
Structure (SMILES),assay,test system,setting,scale,endpoint,result
OB(O)c1csc2ccccc12,,USA300 wild type,50 µM,reference: untreated,growth relative to untreated,63.8% and 46.2% and 53.2% and 80.9% and 71.1%
